# Published values collected from several papers.
# Compare with care: the assays were run in different laboratories. Values joined by “and” are separate records of one study, mostly repeats; a detail may differ. pKd: −log10 of the molar value.
# folP: Dihydropteroate synthase (folP, Bacteria, UniProt P0AC13)
# T1: RNA aptamer; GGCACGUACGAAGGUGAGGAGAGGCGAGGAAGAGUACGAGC
# T2: RNA aptamer; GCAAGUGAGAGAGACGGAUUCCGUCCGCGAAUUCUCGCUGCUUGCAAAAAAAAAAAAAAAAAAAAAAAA
SMILES,target or system,assay,test system,setting,how to read,endpoint,value
CC(C=CC=C(C)C=CC1=C(C)CCCC1(C)C)=CC=O,"Rhodopsin (RHO, Homo sapiens, UniProt P08100, E181K)","ER retention, immunostaining co-localization, refers to: opsin with calnexin",COS-7 transfected E181K,1.00 µM,,Pearson correlation coefficient,0.79
Cn1nc(CCCC(=O)O)c(=O)c2c(=O)[nH]c(N)nc21,folP,CETSA HiBiT,"Escherichia coli, whole cells",concentration not given,relative to: DMSO,melting temperature shift,1.44 °C
C=C1CC[C@H](OCCCNC(=O)CCOCCOCCOCCOCCOCCOCCOCCOCCOCCOCCOCCOCCOCCOCCOCCOCCOCCOCCOCCOCCOCCOCCOCCOCCOCCOCCOCCOCCOCCOCCOCCOCCOCCOCCOCCOCCNC(=O)CCN2C(=O)CC(SC[C@H](NC(=O)[C@H](Cc3ccccc3)NC(=O)[C@H](CC(N)=O)NC(=O)[C@H](Cc3c[nH]cn3)NC(=O)[C@@H](NC(=O)[C@H](CC(=O)O)NC(=O)[C@H](CCC(N)=O)NC(=O)[C@H](CC(C)C)NC(=O)[C@H](CCCCN)NC(=O)[C@H](CCCCN)NC(=O)[C@H](CCCNC(=N)N)NC(=O)[C@H](CC(C)C)NC(=O)[C@H](Cc3c[nH]c4ccccc34)NC(=O)[C@H](CCC(=O)O)NC(=O)[C@@H](NC(=O)[C@H](CCCNC(=N)N)NC(=O)[C@H](CCC(=O)O)NC(=O)[C@H](CCSC)NC(=O)[C@H](CO)NC(=O)[C@H](CC(N)=O)NC(=O)[C@H](CC(C)C)NC(=O)[C@H](Cc3c[nH]cn3)NC(=O)[C@H](CCCCN)NC(=O)CNC(=O)[C@H](CC(C)C)NC(=O)[C@H](CC(N)=O)NC(=O)[C@H](Cc3c[nH]cn3)NC(=O)[C@H](CCSC)NC(=O)[C@H](CC(C)C)NC(=O)[C@H](CCC(N)=O)NC(=O)[C@@H](NC(=O)[C@H](CCC(=O)O)NC(=O)[C@H](CO)NC(=O)[C@@H](NC(=O)[C@@H](N)CO)C(C)C)[C@@H](C)CC)C(C)C)C(C)C)C(=O)O)C2=O)C/C1=C/C=C1\CCC[C@]2(C)[C@@H]([C@H](C)CCCC(C)(C)O)CC[C@@H]12 (some centres unmarked),,,"male cynomolgus monkey, plasma","subcutaneous, 0.07 mg/kg, single dose",,Cmax,389 ng/mL
O=C(NCCc1c[nH]c2cc(Cl)cc(Cl)c12)[C@@H]1CCCCN1C(=O)[C@@H]1Cc2c([nH]c3ccccc23)CN1C(=O)CCl,"PIN1 (Homo sapiens, UniProt Q13526)","protein denaturation, thermal shift",,,,second transition share,30%
COC1CN([C@H]2CC[C@H]([C@@]3(C)Oc4c(Cl)cc(C(=O)NCc5c(SC)cc(C)[nH]c5=O)c(C)c4O3)CC2)C1,,"RNA-seq, refers to: MANSC1 mouse homolog","mouse, HT-1376 xenograft, whole blood",dose not given,relative to: vehicle,log2 fold change,0.0194
Nc1ncc(-c2cc(-c3cnn(CC(F)(F)F)c3)ncc2F)nc1C(=O)NC1CNCC(F)C1 (centres unmarked),CDK7,KINOMEscan,,1 µM,relative to: DMSO control,remaining binding,24%
CC(C)Oc1cc(Cl)ccc1CNc1cc(-c2ccccc2)nc2ncnn12,"GPR3 (Homo sapiens, UniProt P46089, R152A)","cAMP level, cAMP GloSensor",,100 nM,higher = more cAMP,cAMP luminescence,32000 a.u. and 31200 a.u. and 33500 a.u. and 22900 a.u.
Cc1ncsc1-c1ccc(C(C)NC(=O)C2CC(O)CN2C(=O)C(NC(=O)CCCCCCCCCCN2CCCC(Nc3ncc(Cl)c(Nc4ccccc4S(=O)(=O)C(C)C)n3)C2)C(C)(C)C)cc1 (centres unmarked),22Rv1,"RNA-seq, refers to: UACA mRNA",,concentration not given,relative to: DMSO,log2 fold change,-1.03
CC[C@H](C)[C@H](NC(=O)[C@H](CCC(=O)O)NC(=O)[C@H](CCC(=O)O)NC(=O)[C@H](Cc1ccccc1)NC(=O)[C@H](CCCCN)NC(=O)[C@@H]1CCCN1C(=O)[C@H](Cc1c[nH]cn1)NC(=O)[C@H](CCCCN)NC(=O)[C@H](CO)NC(=O)[C@H](CC(C)C)NC(=O)[C@H](Cc1c[nH]cn1)NC(C)=O)C(=O)N[C@@H](CC(C)C)C(=O)N[C@H](C(=O)N[C@@H](CCCNC(=N)N)C(=O)N[C@@H](CC(C)C)C(=O)N[C@@H](CCCNC(=N)N)C(=O)N[C@@H](CC(C)C)C(=O)N[C@@H](CCC(N)=O)C(N)=O)[C@@H](C)O,"Calmodulin-1, C-lobe (CALM1, Homo sapiens, UniProt P0DP23)",ITC,,"concentration not given, C-lobe fragment, with: CaCl2 1 mM",,binding stoichiometry,1.03
COc1ccccc1-c1ccncc1C(=O)Nc1nnc(OCc2ccc(Cl)cc2)s1,"RecQ-like DNA helicase BLM, residues 636–1298 (BLM, Homo sapiens, UniProt P54132)","ATPase activity, ADP-Glo",,"0.12 µM, 1 h",,remaining activity,106%
O=C1c2sc(-c3ccc(N4CCC(F)C4)nc3F)nc2CCN1c1cccnc1 (centres unmarked),"TAR DNA-binding protein 43, aggregated (TARDBP, Homo sapiens, UniProt Q13148)",radioligand binding,"human, FTLD-TDP type B extract",with: radioligand 18.97 nM,,specific binding,2.59 nM and 2.4 nM
N[C@H]1CC[C@H](Nc2nccc(-c3cccnc3Oc3ccc(NC(=O)NC4CC4)c4ccccc34)n2)CC1,"Nucleophosmin (NPM1, Homo sapiens, UniProt P06748)",kinobead competition pulldown,HEK293/HCT116 lysate mixture,"10 µM, 1 h, 4 °C",lower = stronger competition,log2 LFQ intensity,23.9 and 23.6 and 23.8 and 23.7
CC1(C)CC[C@@]2(CO)C(=C3C=C[C@@H]4[C@@]5(C)CC[C@H](O)[C@@](C)(CO)[C@@H]5CC[C@@]4(C)[C@]3(C)C[C@@H]2O)C1,"SIRT1 (Homo sapiens, UniProt Q96EB6)","binding, microscale thermophoresis",,30.5 nM,,MST normalised fluorescence,910 a.u.
CC(C)[C@@H]1NC(=O)[C@H](Cc2ccccc2)NC(=O)CSC[C@@H](C(N)=O)NC(=O)[C@H](CCC(=O)O)NC(=O)[C@H](CO)NC(=O)[C@H](Cc2c[nH]c3cccc(Cl)c23)NC(=O)[C@H](C2CCCCC2)NC(=O)[C@H](C(C)C)NC(=O)[C@H](Cc2ccc(O)cc2)NC(=O)[C@H](CC(=O)O)NC(=O)[C@H](Cc2c[nH]c3ccccc23)NC(=O)[C@H](Cc2ccc(N)nc2)NC(=O)[C@H](Cc2c[nH]c3ccc(Cl)cc23)NC(=O)[C@H](CCC(=O)O)NC1=O,"Interleukin-1 receptor-like 2 (IL1RL2, Homo sapiens, UniProt Q9HB29)","reporter gene (SEAP), inhibitor, HEK-Blue IL-36R reporter",HEK-Blue IL-36R cells,"0.005 µM, 6 h, with: IL-36γ 0.3 ng/mL",,remaining activity,102%
CCCCCCCCCCCC=O,"uncharacterized protein (Spodoptera exigua, UniProt F1CEY0)","binding, competitor, fluorescence displacement",,"20 µM, pH 7.4, with: 1-NPN 20 µM",relative to: 1-NPN alone,relative fluorescence,40.7%
CCC1Sc2ccc(S(=O)(=O)CCC(=O)Nc3cccc4ccccc34)cc2NC1=O (centres unmarked),"P2X purinoceptor 7 (Ailuropoda melanoleuca, UniProt G1M6C4)","ATP-evoked current, inhibitor, whole-cell patch clamp",HEK293 transfected,"0.1 µM, wild type",,remaining current,98.5%
COc1ccc(-c2ccc3c(c2)C(=Cc2sc4ccccc4[n+]2CC(=O)NCCOCCOCCOCCNC(=O)CCCC[C@@H]2SC[C@@H]4NC(=O)N[C@@H]42)C=CN3C)cc1,"T1, RNA aptamer",fluorescence titration,,,,pKd,9.66
C=CC(=O)Nc1cccc(Cn2ncc3cnc(Nc4cnn(CCOC)c4)nc32)c1,GSK3A human,"binding, KINOMEscan",,100 nM,lower = stronger binding,percent of control,100%
Fc1ccc(Nc2nc(NCc3ncccn3)nc(Nc3ccccc3)n2)cc1,"T2, RNA aptamer",SPR,,"25 °C, read off a plot",,pKd,6.43
CCC1(CC)C(=O)N(c2cccc(C)c2)C1=O,"DPP9 (Homo sapiens, UniProt Q86TI2)","enzyme activity, inhibitor",,5 µM,,activity vs control,> 90%
COCCCCCNc1nc(NCCCCCCN(C)C)c2cc(NC(=O)/C=C/CN(C)C)ccc2n1,"SETDB1 (Homo sapiens, UniProt Q15047)","cell-free assay, inhibitor, FP",,31.25 nM,,remaining signal,111%
CCOC(=O)Cc1n[nH]c2nc(N)[nH]c(=O)c2c1=O,folP,CETSA HiBiT,"Escherichia coli, whole cells",concentration not given,relative to: DMSO,melting temperature shift,2.56 °C
CC(=O)N[C@@H](CCC(=O)O)C(=O)N[C@@H](CCC(=O)O)C(=O)N[C@@H](CCC(=O)O)C(=O)N[C@@H](Cc1c[nH]c2ccccc12)C(=O)N[C@@H](C)C(=O)N[C@@H](CCCNC(=N)N)C(=O)N[C@@H](CCC(=O)O)C(=O)N[C@@H](CC1CCCCC1)C(=O)NCC(=O)N[C@@H](C)C(=O)N[C@@H](CCC(N)=O)C(=O)N[C@@H](CC(C)C)C(=O)N[C@@H](CCCNC(=N)N)C(=O)N[C@@H](CCCNC(=N)N)C(=O)N[C@@H](C)C(=O)N[C@@H](C)C(=O)N[C@@H](CC(=O)O)C(=O)N[C@@H](CC(=O)O)C(=O)N[C@@H](CC(C)C)C(=O)N[C@@H](CC(N)=O)C(=O)N[C@@H](C)C(=O)N[C@@H](CCC(N)=O)C(=O)N[C@@H](Cc1ccc(O)cc1)C(=O)N[C@@H](CCC(=O)O)C(=O)N[C@@H](CCCNC(=N)N)C(=O)N[C@@H](CCCNC(=N)N)C(=O)N[C@@H](CCCNC(=N)N)C(N)=O,"Induced myeloid leukemia cell differentiation protein Mcl-1 homolog, residues 152-308 (Mus musculus, UniProt P97287)","binding, SPR",,0.2% DMSO,,koff,0.0279 s⁻¹
CC1(C)C[C@@H](Nc2cccc(-c3sc(C(=O)O)c(OCC(=O)O)c3Cl)c2)CCN1S(=O)(=O)Cc1cccc(NC(=O)CN2CCC(c3ccc4c(c3)oc(=O)n4C3CCC(=O)NC3=O)CC2)c1 (some centres unmarked),"PTPN2 (Homo sapiens, UniProt P17706, H30A/P33A/R35A)","degrader, bio-layer interferometry",,31.3 nM,higher = more binding,BLI binding response,0.255 a.u.
CC(C(=O)O)c1n[nH]c2nc(N)[nH]c(=O)c2c1=O (centres unmarked),folP,CETSA HiBiT,"Escherichia coli, whole cells",concentration not given,relative to: whole cell over lysate ΔTm,target engagement efficiency,23.6%
O=C1c2sc(-c3ccc(N4CCC(CO)CC4)nc3F)nc2CCN1c1cccnc1,"AVPR2 (Homo sapiens, UniProt P30518)","ligand displacement, radioligand",,1 µM,,inhibition,3%
COc1cc(Nc2nccc(-c3cnn4nc(OC)ccc34)n2)cc(C(F)(F)F)c1,"FLT3 (Homo sapiens, UniProt P36888, N841I)",binding,,1 µM,,remaining binding,76%
COc1cccc(NC(=O)Nc2ccccc2O)c1,"SRPK3 (Homo sapiens, UniProt Q9UPE1)","kinase activity, Z'-LYTE",,,,Hill slope,1.09
COc1cc(N2CCN(C(=O)C3CCCN3)CC2)ccc1Nc1ncc(Cl)c(Nc2ccccc2P(C)(C)=O)n1 (centres unmarked),"GID4/ALK (Homo sapiens, UniProt Q8IVV7+Q9UM73)",ternary complex formation,HEK293T,"100 nM, 6 h",relative to: normalised ratio,NanoBRET ratio,1.8 and 1.77 and 1.56
C=C(NC(=O)c1csc(-c2nc3c(cc2O)-c2nc(cs2)C(=O)NC(C(C)O)C(=O)NC(=C(C)OC)c2nc(cs2)C(=O)NC2c4nc(cs4)C(=O)NC(COC(=O)c4c5c6c(cccc6n4O)COC(=O)C(OC4CC(C)(O)C(N(C)C)C(C)O4)C2OC5)c2nc-3cs2)n1)C(N)=O (centres unmarked),,,"ICR mice, Streptococcus pneumoniae ATCC 49169 infected, immunocompromised, blood","intravenous, 8 mg/kg twice daily",,AUC(0-t),0.538 µM·h
CC[C@H]1CN([C@@H](CC)c2ccc(C(F)(F)F)cc2)[C@H](CC)CN1c1nc(=O)n(C)c2ccc(C#N)nc12,"Diacylglycerol kinase delta (DGKD, Homo sapiens, UniProt Q16760)",type II DGK,,concentration not given,,lipid kinase activity,inactive
Cc1nn(C)c2nc(N)[nH]c(=O)c2c1=O,folP,CETSA HiBiT,"Escherichia coli, whole cells",,,melting temperature,64.8 °C
CC1CCCN(CCCNC(=O)C2=Cc3sc4c(c3CS2)CCCC4)C1 (centres unmarked),"Catenin beta-1, residues 141-305 (CTNNB1, Homo sapiens, UniProt P35222)",ITC,,25 °C,,ΔS,0.8 cal/mol/K
Cn1nc(C(=O)O)c(=O)c2c(=O)[nH]c(N)nc21,folP,CETSA HiBiT,"Escherichia coli, whole cells",,,melting temperature,57.1 °C
CCCCCC(O)/C=C/C=O (centres unmarked),"Alpha-adducin (ADD1, Homo sapiens, UniProt P35611)","competitive isoTOP-ABPP, refers to: ADD1 cysteine peptide","proteome, soluble, MDA-MB-231","100 µM, with: iodoacetamide probe","relative to: DMSO over compound-treated, higher = stronger cysteine blockade",isoTOP-ABPP competition ratio,1.7

# Some of these lines once more:
SMILES,target or system,assay,test system,setting,how to read,endpoint,value
Nc1ncc(-c2cc(-c3cnn(CC(F)(F)F)c3)ncc2F)nc1C(=O)NC1CNCC(F)C1 (centres unmarked),CDK7,KINOMEscan,,1 µM,relative to: DMSO control,remaining binding,24%
CC1CCCN(CCCNC(=O)C2=Cc3sc4c(c3CS2)CCCC4)C1 (centres unmarked),"Catenin beta-1, residues 141-305 (CTNNB1, Homo sapiens, UniProt P35222)",ITC,,25 °C,,ΔS,0.8 cal/mol/K
C=CC(=O)Nc1cccc(Cn2ncc3cnc(Nc4cnn(CCOC)c4)nc32)c1,GSK3A human,"binding, KINOMEscan",,100 nM,lower = stronger binding,percent of control,100%
